Measurements from different studies.
Each numbered part is a random draw from the data of one study; scales do not carry over between parts.

Study 1 — method: competition protein-binding microarray; molecule type: double-stranded DNA, one strand shown; sample: in vitro; tested at: 2 µM; added: Pho4 competitor, 0.05 µM; reading: higher = stronger binding
Target: Centromere-binding protein 1, full length, His-tagged (CBF1, Saccharomyces cerevisiae, UniProt P17106, residues 1-351)
Sequence of UniProt P17106 (whole entry, looked up): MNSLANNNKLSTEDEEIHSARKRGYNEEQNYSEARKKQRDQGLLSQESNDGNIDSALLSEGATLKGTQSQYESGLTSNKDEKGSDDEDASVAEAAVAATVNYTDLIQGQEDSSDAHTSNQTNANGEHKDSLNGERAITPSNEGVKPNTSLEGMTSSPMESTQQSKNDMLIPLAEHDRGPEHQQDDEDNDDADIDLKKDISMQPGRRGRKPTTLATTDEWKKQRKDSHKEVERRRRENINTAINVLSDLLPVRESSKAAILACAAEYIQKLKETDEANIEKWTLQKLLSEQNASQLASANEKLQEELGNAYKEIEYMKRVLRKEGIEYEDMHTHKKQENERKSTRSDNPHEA
Notes: whole 60-bp probe, lowest competitor level
For `CATACCCAACCTTAGCACGTGTTTTAAGATATTTGTGTCTTGATTCGCTTGACGCTGCTG`, the fluorescence intensity was 2250 a.u.
The fluorescence intensity of `TATCGTCATATAAAAAACGTGCAAAGTATATGTAACGTCTTGATTCGCTTGACGCTGCTG` is reported as 354 a.u.
With `ACTGCCGTTGTTCATACCGTGACTCGTAGTGGCAGTGTCTTGATTCGCTTGACGCTGCTG` the fluorescence intensity was 176 a.u.
`CAGTTGCTGACGAGTCACGTTGATGAGCAAGAATACGTCTTGATTCGCTTGACGCTGCTG` has a fluorescence intensity of 663 a.u.

Study 2 — method: universal PBM; molecule type: double-stranded DNA, one strand shown; sample: in vitro; tested at: 600 nM; reading: higher = stronger binding
Target: Sal-like protein 4, full length isoform A (SALL4, Homo sapiens, UniProt Q9UJQ4, residues 1-1053)
Sequence of UniProt Q9UJQ4 (whole entry, looked up): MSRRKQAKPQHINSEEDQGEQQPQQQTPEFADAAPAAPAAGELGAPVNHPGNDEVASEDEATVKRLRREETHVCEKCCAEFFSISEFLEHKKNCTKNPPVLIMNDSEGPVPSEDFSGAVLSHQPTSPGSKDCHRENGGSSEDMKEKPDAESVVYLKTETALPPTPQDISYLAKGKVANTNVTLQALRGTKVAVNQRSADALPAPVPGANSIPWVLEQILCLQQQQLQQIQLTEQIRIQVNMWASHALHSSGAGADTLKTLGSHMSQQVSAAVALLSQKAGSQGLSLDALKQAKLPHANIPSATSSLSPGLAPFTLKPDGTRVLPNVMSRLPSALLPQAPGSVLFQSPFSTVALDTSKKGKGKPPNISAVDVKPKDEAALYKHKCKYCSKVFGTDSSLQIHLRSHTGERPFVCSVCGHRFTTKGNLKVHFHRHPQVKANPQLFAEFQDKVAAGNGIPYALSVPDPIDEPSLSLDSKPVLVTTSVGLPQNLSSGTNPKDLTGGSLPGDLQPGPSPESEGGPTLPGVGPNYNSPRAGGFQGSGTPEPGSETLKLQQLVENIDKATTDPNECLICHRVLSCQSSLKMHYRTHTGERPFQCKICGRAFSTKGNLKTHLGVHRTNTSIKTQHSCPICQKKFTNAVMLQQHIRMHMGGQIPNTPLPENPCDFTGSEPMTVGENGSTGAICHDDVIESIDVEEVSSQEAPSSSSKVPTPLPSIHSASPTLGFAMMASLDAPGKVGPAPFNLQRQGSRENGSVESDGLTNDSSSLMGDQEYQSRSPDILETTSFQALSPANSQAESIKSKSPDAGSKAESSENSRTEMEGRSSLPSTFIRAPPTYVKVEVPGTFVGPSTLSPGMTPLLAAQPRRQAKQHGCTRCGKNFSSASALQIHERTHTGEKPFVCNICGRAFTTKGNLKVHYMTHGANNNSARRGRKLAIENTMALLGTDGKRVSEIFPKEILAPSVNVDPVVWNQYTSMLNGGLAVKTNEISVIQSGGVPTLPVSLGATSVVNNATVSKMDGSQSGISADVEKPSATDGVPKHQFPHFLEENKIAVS
Notes: 8-mer, flanks averaged, mean of replicates
For `ACCATACC`, the E-score was -0.111.
`AAAATAAA` gave an E-score of 0.373.
The E-score of `ACCTCCCT` is reported as -0.164.
The E-score of `CGATCGAC` is reported as 0.0269.

Study 3 — method: protein-binding microarray; molecule type: double-stranded DNA, one strand shown; sample: in vitro; tested at: 250 nM; notes: 60-bp whole probe; added: salmon DNA 0.4 mg/ml; relative to: random background probes; reading: higher = stronger binding
Target: Interferon regulatory factor 7, full length, phosphomimetic (IRF7, Homo sapiens, UniProt Q92985, residues 1-503, S101K/S471D/S472D/S475D/S476D/S477D/S483D/S484D/S487D)
Sequence of UniProt Q92985 (whole entry, unmodified, looked up): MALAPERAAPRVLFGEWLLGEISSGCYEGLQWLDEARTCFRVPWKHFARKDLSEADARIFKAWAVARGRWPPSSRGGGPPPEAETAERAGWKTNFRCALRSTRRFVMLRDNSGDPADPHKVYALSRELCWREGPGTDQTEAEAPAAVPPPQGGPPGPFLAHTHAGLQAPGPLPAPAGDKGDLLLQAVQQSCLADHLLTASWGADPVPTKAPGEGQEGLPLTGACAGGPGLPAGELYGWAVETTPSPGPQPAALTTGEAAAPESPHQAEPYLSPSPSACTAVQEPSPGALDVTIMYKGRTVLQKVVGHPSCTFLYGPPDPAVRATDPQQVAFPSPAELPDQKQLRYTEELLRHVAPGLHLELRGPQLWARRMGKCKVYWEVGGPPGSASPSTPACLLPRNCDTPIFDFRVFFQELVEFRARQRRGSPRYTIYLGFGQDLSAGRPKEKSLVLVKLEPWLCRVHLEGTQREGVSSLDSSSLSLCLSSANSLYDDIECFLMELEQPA
The log fluorescence of `GCCTAGCACGACGGTATCGACTTTCGGGCCGTGCTAGTCTTGATTCGCTTGACGCTGCTG` is reported as 0.546 z-score.
For `GCCTAGCACTCATCATTCCTGATCTCACTGTGCTAGGTCTTGATTCGCTTGACGCTGCTG`, the log fluorescence was 0.689 z-score.
`GCCTAGCACTCATTTCTCTATTGCTTACTGTGCTAGGTCTTGATTCGCTTGACGCTGCTG` has a log fluorescence of 2.35 z-score.
For `GCCTAGCACAACGGTCTCCTTTTCCTGACGTGCTAGGTCTTGATTCGCTTGACGCTGCTG`, the log fluorescence was 1.49 z-score.

Further values, each from its own experiment
With `PhoQ, residues 284 288 289 292 302 303 WVSSAF` the fold induction was 1.45 (PhoP, residues 12 14 15 18 19 LYHSL (Escherichia coli, UniProt P23836); Sort-seq, refers to: YFP reporter; E. coli; PhoQ-PhoP variant library, added: 10 µM Mg2+; relative to: high Mg2+ state, higher = stronger signaling).

Repeated from above (study 1):
With `ACTGCCGTTGTTCATACCGTGACTCGTAGTGGCAGTGTCTTGATTCGCTTGACGCTGCTG` the fluorescence intensity was 176 a.u.
